# Experimental data of several laboratories.
# Parts stem from different laboratories: compare values within a part only.

# Set 1 — method: aptamer microarray, sandwich; molecule type: DNA with 2'F-ANA; medium: in vitro; tested at: 200 nM; with: Cy3 exosite-II aptamer, 400 nM; reading: higher = stronger binding; strand: GGTTGGTGTGGTTGG
# Target: Prothrombin, mature alpha-thrombin (F2, Homo sapiens, UniProt P00734)
# Notes: whole 15-mer aptamer, many near background
Modification,mean fluorescence intensity
2'F-ANA at 7 8 10 13,177 a.u.
2'F-ANA at 2 3 5 8 11 15,96.3 a.u.
2'F-ANA at 3 6 7 11 12 14,626 a.u.
2'F-ANA at 3 6 11 13 14,517 a.u.
2'F-ANA at 1 3 4 5 6 8 14 15,49.5 a.u.
2'F-ANA at 3 5 6 9 12 13,152 a.u.
2'F-ANA at 1 3 5 6 8 10 12 13 14 15,46.2 a.u.
2'F-ANA at 2 4 5 6 9 13 15,56.7 a.u.
2'F-ANA at 4 5 6 7 14 15,98.5 a.u.
2'F-ANA at 1 2 3 6 12 13 14,82.8 a.u.
2'F-ANA at 5 6 7 9 10 12 13 14,46.4 a.u.
2'F-ANA at 1 2 6 7 15,180 a.u.
2'F-ANA at 3 6 7 8 9 10 11 13 15,431 a.u.
2'F-ANA at 1 3 4 5 6 7 8 9 10 12 13,63.8 a.u.
2'F-ANA at 1 2 3 4 5 6 7 8 9 11 12 13,71.6 a.u.
2'F-ANA at 2 4 5 6 11 13 14 15,50.6 a.u.
2'F-ANA at 4 5 9 11 14 15,44.8 a.u.

# Set 2 — method: protein-binding microarray; molecule type: double-stranded DNA, one strand shown; medium: in vitro; tested at: 0.8 µM; notes: whole 60-bp probe, no competitor; reading: higher = stronger binding; shared flanks, not repeated: … GTCTTGATTCGCTTGACGCTGCTG
# Target: Centromere-binding protein 1, full length, N-terminal tag (CBF1, Saccharomyces cerevisiae, UniProt P17106, residues 1-351)
# Sequence of UniProt P17106 (whole entry, looked up): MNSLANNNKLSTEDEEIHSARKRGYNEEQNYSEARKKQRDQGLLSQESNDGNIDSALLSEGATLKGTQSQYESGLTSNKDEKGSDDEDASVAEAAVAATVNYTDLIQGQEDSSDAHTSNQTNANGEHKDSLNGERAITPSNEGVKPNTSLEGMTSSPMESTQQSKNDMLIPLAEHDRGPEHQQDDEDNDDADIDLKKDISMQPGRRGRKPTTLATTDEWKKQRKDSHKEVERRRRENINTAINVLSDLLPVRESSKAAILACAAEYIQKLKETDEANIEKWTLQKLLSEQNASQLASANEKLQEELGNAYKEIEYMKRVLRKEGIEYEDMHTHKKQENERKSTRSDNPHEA
Strand,fluorescence intensity [a.u.]
GAATTAGTCATATCAAACATGACAAATATAACATAG,577
GAAGGGAATAGGTCACATGAAACGACGACAACTTAG,2150
GAACGTATGACAAAGAGCACCACGATGGTGATCTAG,524
GAATTAAGAAGCCGCAAGGTCACCTAAATACCTTAG,484
CCTAACTACTATATTACCGTGTCATAGCTTCGTACA,551
GAATTGGTGTTAAATGACCAGGTGAGCCTCACTTAG,648
GAAGATGATGACGACCACGACAACTGGTGTCATTAG,524
CTAGCAAGGATTGGTGATGAGATAAGATAATGATTC,518
GAATGTAAATGTAAACACGAGGCAAACTTCTCCTAG,690
CTACTATCAAAGCGAAAGGTGACCTTTTTATCGTTC,563
CTAGAACGGCCCGCAATCGTGACCCGGCCAAAGTTC,655
GAAAAATTGCCTTATAACGTGGGCCATGTCATGTAG,530
CTAATTTTTTGTAGTGTGATGTTGACATGGTTATTC,681
CCTAACTACTATAGTCATCATATATAGCTTCGTACA,516
CTAGACACTATAAATGACATGATGTGAGCCTTATTC,525
CCTAACTACTATAGTGATCTCAGATAGCTTCGTACA,556
GAATGCGGATGCTATGTCACGTTGAATTAGACCTAG,1150
CTATTCCCCCATGCACTGATGGCGCTTGTATATTTC,521
CTACCCTTTAAGCACCACATGGAACTCGACTGCTTC,576
CTATCAGCAACAGTACGCACCACCTTCACAGCATTC,567
CTAATATGATAATATTCCGTCACCTTGAATACTTTC,534
CTATAAATTTTAATTCTCATGATAGTAACGATCTTC,560
CTATGTCTTACAAAGCTCGTGATATTAGTATGCTTC,1050
GAAAATCCCAACAATTACATCAGAATCCACACATAG,543
GAACGAAAACGTTCCAACGTGCGGCCGCTGCTTTAG,536

# Set 3 — method: universal PBM; molecule type: double-stranded DNA, one strand shown; medium: in vitro; tested at: 600 nM; reading: higher = stronger binding
# Target: Sal-like protein 4, full length isoform A (SALL4, Homo sapiens, UniProt Q9UJQ4, residues 1-1053)
# Sequence of UniProt Q9UJQ4 (whole entry, looked up): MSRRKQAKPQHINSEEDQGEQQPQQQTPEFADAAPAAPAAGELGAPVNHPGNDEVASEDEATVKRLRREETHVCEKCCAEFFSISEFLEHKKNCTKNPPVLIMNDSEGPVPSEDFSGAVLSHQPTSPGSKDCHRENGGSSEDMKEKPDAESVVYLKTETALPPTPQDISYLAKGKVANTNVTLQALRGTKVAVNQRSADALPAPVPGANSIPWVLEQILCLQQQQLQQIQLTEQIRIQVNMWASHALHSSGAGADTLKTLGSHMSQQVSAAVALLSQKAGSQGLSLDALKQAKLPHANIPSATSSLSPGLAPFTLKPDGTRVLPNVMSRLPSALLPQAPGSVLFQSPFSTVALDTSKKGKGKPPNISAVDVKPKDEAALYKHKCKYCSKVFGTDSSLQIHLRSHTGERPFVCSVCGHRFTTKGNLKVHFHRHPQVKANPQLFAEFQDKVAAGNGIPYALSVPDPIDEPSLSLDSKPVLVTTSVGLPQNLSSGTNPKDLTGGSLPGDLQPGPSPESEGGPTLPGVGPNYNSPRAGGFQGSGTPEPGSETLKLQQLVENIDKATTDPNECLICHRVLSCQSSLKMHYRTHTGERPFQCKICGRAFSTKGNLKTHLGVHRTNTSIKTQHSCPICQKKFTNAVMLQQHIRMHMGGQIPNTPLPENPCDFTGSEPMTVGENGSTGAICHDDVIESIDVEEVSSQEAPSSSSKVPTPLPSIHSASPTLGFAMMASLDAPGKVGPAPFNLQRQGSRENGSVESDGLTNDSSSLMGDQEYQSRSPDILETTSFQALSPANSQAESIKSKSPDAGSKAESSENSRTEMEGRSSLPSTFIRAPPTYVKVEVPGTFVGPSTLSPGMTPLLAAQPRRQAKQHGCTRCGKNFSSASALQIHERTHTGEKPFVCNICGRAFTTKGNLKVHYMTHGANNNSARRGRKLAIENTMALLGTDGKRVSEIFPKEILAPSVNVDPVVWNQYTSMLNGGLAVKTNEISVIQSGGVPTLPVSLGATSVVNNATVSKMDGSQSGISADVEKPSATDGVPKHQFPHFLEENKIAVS
# Notes: 8-mer, flanks averaged, mean of replicates
Strand,E-score
AGGAAACC,-0.197
TGTGGCAA,-0.00957
GGGATACC,-0.334
ACAAAAGC,0.093
ATACGGAA,0.0875
ACTAAGCG,-0.161
GCCCGGCA,-0.41
CTGGGGCA,-0.361
ACAAACAG,0.0802
TGAGATAA,0.269
CTATCCTC,-0.0988
AAATCGTC,0.104
ACTGGTCT,-0.151
CAACGCGC,-0.132
AATTCCTG,0.0218
CCCAAGTC,-0.212
AGATATTG,0.321
CAAGCCTC,-0.279
CTGAGCAA,-0.108
TACCCCCA,0.00152
TAAACGAA,0.179
AGTGCTAA,0.0335

# Set 4 — method: RNA Bind-n-Seq; molecule type: RNA; medium: in vitro; tested at: 365 nM; reference: no-protein control; reading: higher = stronger binding
# Target: RNA binding protein fox-1 homolog 2, RRM domain, GST-SBP tag (RBFOX2, Homo sapiens, UniProt O43251-10, residues 100-194)
# Notes: natural RNA segment, single round, ends assumed
# Shared flanks, not repeated: GGGAGUUCUACAGUCCGACGAUC … UGGAAUUCUCGGGUGCCAA
# Target sequence (chain): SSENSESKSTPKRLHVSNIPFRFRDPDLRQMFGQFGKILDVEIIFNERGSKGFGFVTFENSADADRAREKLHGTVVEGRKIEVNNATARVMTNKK
Strand,RBNS enrichment (R)
CACAGCAGUGGGUACAGCCUGUGUGGGCGCAGGUGGUCCCUUUUCUGUGCCCUGACAAGUAGACUGGCACACUCCUGCCCCACACUCAGCCUUCUGCAGCAGGUAGGCUU,0.379
UAUAUGAUAUGGUAUGAUGCUUAUGGUCUGCUAUGAGCAUUCCUGGGCAUACCACAUAACUAGAUGCAAGAACCUUGGGGUAGCAUUCUGUAUUUUUAAAUAUGUUUUAA,0.733
GAUCUCAGCCUAGCGAUGCCGCUGGCCAGACCGUGACCAUGCUGCCAGUGUGCUCGCCAUGAGCUGGGUCAGGGCUGGGGAGUUGUGCAGGCUGGGGUGACCCUUCCCCC,0.429
AUUGUCCUUCCCUGAGGCUCCAUUGCUGCUUGGUGGCCAUUCUCUGCCUUUUUACAGUCACCUGAACAAUGACCCAUCAUCUCUUGCUUGCUUGAAAUCUUGCUGAAAUG,0.597
CCGCCUCCCGGGUUCACGCCGUUCUCCUGCCUCAGCCUCUCUGAGAAGCUGGGACUACAGGCGCCCGCCACCACGCCCGGCUAAUUUUUUUGUAUUUUUAGUAGAGACGG,0.189
UUUGAAAUGAUCACAACACACUGUGCAGAAGUGGACAGAUGUUCCAUGGCGUUUGGUUCUCCUUCCUUCUCUCUCCUGCUCACUUCUCUGCCGCGCAACACAUCUCUCUG,0.383
CGAGAAACGGCUCUUCCUGCCUGGAUGCAGGAGGGCAGGGGCCACCACAGAUUAAAGCUGUUACUGCACACGCAGAGGCCGGCUUCUUCCUCCAGGGGGGCCACAGGGUG,0.309
CAUGGUACGUCCCACCCUGUCCCCAGAUCCCCUAUUCCCUCCACAAUAACAGAAACACUCCCAGGGACUCUGGGGAGAGGCUGAGGACAAAUACCUGCUGUCACUCCAGA,0.703
CAAAGGAAUGUGAUUGGAUUUACUGGUUGGUUAAUUUCUUGUGAAAUAUUGUCAUAAUAGAAGCACAGCUUGAACAAAAGACUGAAUUCUGAUAUAAACUGUCAAUAUUG,7.68
CCUUUAUUUGACCAGUUAAAAUGGGCAAAAGGUUCACAUGCUGUCACCUGAGCACAUGGUCUACUGCUUAAGGGCAUGGGGGAGGGGACCGCCCCUCUUGAGGAAGCAGA,8.87
GUCCCGCCCACCAGCGGACUCGGCCCCCAAGGCUCCGCCCACACUGACCACGCCCCUCGGCGGGGCCGCCCUCUGCUCCAGCCCUCCCGAUUAAAGCGUGCCCCGGUCCA,0.673
AAAAAUCAUGUUAUUUUUUUUUAAGACACACACAAAAAGAUACUUAAAGACCAAAAACUGUGCUGGGAAGAUAUGCCCCACCUAUCUUUGGUACAUGGUAGGUGUUGUGA,0.71

# Excerpt of the above (set 2):
Strand,fluorescence intensity [a.u.]
CTAATATGATAATATTCCGTCACCTTGAATACTTTC,534
GAAAAATTGCCTTATAACGTGGGCCATGTCATGTAG,530
GAATTAAGAAGCCGCAAGGTCACCTAAATACCTTAG,484
CTATCAGCAACAGTACGCACCACCTTCACAGCATTC,567
